Results of several laboratories.
Compare with care: the assays were run in different laboratories.
Target: Histamine H3 receptor (HRH3, Homo sapiens, UniProt Q9Y5N1)
Sequence of UniProt Q9Y5N1 (whole entry, looked up): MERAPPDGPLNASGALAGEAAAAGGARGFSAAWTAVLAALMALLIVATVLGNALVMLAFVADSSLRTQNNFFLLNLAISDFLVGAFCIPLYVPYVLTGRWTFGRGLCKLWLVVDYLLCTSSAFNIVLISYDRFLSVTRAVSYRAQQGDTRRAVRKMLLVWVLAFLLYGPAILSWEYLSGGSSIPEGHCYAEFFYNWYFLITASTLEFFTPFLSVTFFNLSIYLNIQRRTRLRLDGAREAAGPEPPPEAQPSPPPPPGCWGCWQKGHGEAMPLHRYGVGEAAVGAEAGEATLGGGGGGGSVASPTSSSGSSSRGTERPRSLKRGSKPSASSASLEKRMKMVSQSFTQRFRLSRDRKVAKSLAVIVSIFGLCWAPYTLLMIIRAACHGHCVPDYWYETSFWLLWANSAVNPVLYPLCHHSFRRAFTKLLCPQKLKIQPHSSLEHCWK

O=C1c2sc(-c3ccc(N4CCC(F)C4)nc3F)nc2CCN1c1cccnc1 (centres unmarked) — inhibition (ligand displacement, radioligand; 1 µM): 23%
Cn1ccc2cc(-n3c(=O)[nH]c4sc5c(c4c3=O)CCCC5)ccc21 — inhibition (cell-free assay, radioligand; 10 µM): 6%
C[Si](C)(C)C[C@@H](CN)CC(=O)O — inhibition (ligand displacement, radioligand; 75 µM): -18%
COc1ccc(C(=O)Nc2c(-c3cccs3)nc3ccccn23)cc1 — inhibition (ligand displacement, radioligand; 10 µM): < 50%
Brc1ccccc1-c1nnc(CSc2nnnn2-c2ccccc2)o1 — inhibition (ligand displacement, radioligand; 10 µM): -15%
COCC(=O)N1CCc2cc(-c3csc(NC(=O)c4cc(OC)cc(OC)c4)n3)ccc21 — inhibition (ligand displacement, radioligand; 10 µM): 0%
Cc1[nH]nc2c1N=C(c1ccccc1Cl)c1cnc(N3CCOCC3)cc1N2 — inhibition (cell-free assay; 10 µM): 5%
CNC(=O)C[C@H](Cc1ccc(C#N)cc1)NC(=O)c1cc(-c2ccc(CN[C@H](C)c3ccc(C)cc3)o2)ccc1Cl — inhibition (agonist response, antagonist; human cells; 10 µM, H3 antagonist): 10%

A few entries again:
Brc1ccccc1-c1nnc(CSc2nnnn2-c2ccccc2)o1 — inhibition (ligand displacement, radioligand; 10 µM): -15%
